Measurements from different studies.
Protocols differ between the studies behind these lines. “And” joins repeats or separate records; there may be more than shown. ± marks the error that the study gave.

COCCN1CCN(c2ccc(Oc3ccc(F)cc3F)c(-c3cn(C)c(=O)c4[nH]ccc34)c2)S1(=O)=O
IC50 (Light II cells; GLI reporter gene, inhibitor; Hedgehog pathway): 0.0261 ± 0.00517 µM

C#CCN(CC(=O)O[C@H]1[C@H](C)O[C@@H](O[C@H]2[C@H](N(C)C)[C@@H](O)[C@H](O[C@H]3[C@@H](CC=O)C[C@@H](C)[C@@H](O[C@H]4CC[C@H](N(C)C)[C@@H](C)O4)/C=C/C=C/C[C@@H](C)OC(=O)C[C@@H](O)[C@@H]3OC)O[C@@H]2C)C[C@@]1(C)O)C(=O)c1ccc(C(F)(F)F)cc1
IC50 (HGC-27; cell viability, CCK-8; 72 h): 0.19 ± 0.02 µM

CCc1n(CC(=O)O[C@@H]2C[C@H](C)CC[C@H]2C(C)C)c2ccccc2[n+]1C
IC50 (primary human glioblastoma cultures; cell viability): ~1 µM

Cc1ccc(C(C)C)cc1.O=C(N=P(c1ccccc1)(c1ccccc1)c1ccccc1)c1ccccn1.[Cl-].[Cl][Ru+]
IC50 (IMR-90; cell growth or viability, resazurin): 53.7 µM

CC(=O)Oc1ccc(/C=C/C(=O)Nc2nc(=O)n([C@@H]3O[C@H](C)[C@@H](OC(C)=O)[C@H]3OC(C)=O)cc2F)cc1OC(C)=O
IC50 (BxPC-3; cell viability, MTT; 72 h): 32 µM and 31.6 µM

CCCCCCCCCCCCCCCCCCOc1c(O)cc(C(=O)O[C@@H]2Cc3c(O)cc(O)cc3O[C@@H]2c2cc(O)c(O)c(O)c2)cc1O
IC50 (A-431; cell growth or viability, CCK-8; 24 h): 94.6 µM

O=C(NN1C(=O)c2ccccc2NC1c1ccc([N+](=O)[O-])o1)c1ccc([N+](=O)[O-])cc1 (stereo not shown)
IC50 (HCC4017; cell growth or viability, MTS; 96 h): > 50 µM

CCCCCCCCC=CCCCCCCCC(=O)OCC1OC(n2ccc(N)nc2=O)C(F)(F)C1O (stereo not shown)
IC50 (LOX; cell growth; with: dipyridamole 4 µg/mL): 0.025 ± 0.001 µM

CCCC(=O)Oc1c(C)c(OC)c2c(/C=C/c3ccccc3)c(CC)c(=O)oc2c1C
IC50 (KKU-M213; cell growth or viability, SRB; 72 h): 29.6 µM

C[N+]1(C)CC[NH2+][Pt-2]1([OH])([Cl])([Cl])[O]C(=O)CCC(=O)OCCOC(=O)CCC(=O)[O][Pt-2]1([OH])([Cl])([Cl])[NH2+]CC[N+]1(C)C
IC50 (CH1; cell growth or viability, MTT; 96 h): 6.2 µM

O=C(Cc1ccc2ccccc2c1)N[C@H](Cc1ccccc1)C(=O)N[C@H](Cc1ccc(OP(=O)(O)O)cc1)C(=O)N[C@H](Cc1ccccc1)C(=O)N[C@H](Cc1ccc(OP(=O)(O)O)cc1)C(=O)O
IC50 (HS5; cell growth or viability, MTT): > 483 µg/mL

O=C(N/N=C/c1ccccn1)c1cc(-c2ccc(Cl)cc2)nc2ccccc12
IC50 (LDR; cell viability, MTS; 4 days): > 50 µM

CC(=O)[O-].Nc1ccc(C([O-])=NN=Cc2ccc(OCC(=O)Nc3ccc(Cl)cc3)cc2)cc1.O.O.O.[Ni+2]
IC50 (WISH; cell growth or viability, MTT; 24 h): 18.3 µg/mL

CN(C)c1cc[n+](Cc2cccc(C[n+]3ccc(N(C)C)cc3)c2)cc1
IC50 (3T3-L1; cell viability, MTT; 72 h): 61.96 ± 0.52 µM

CCCCCCCCCCCCCCCC(=O)O[C@H]1[C@H](C)O[C@@H](O[C@H]2[C@H](N(C)C)[C@@H](O)[C@H](O[C@H]3[C@@H](CC=O)C[C@@H](C)[C@@H](O[C@H]4CC[C@H](N(C)C)[C@@H](C)O4)/C=C/C=C/C[C@@H](C)OC(=O)C[C@@H](O)[C@@H]3OC)O[C@@H]2C)C[C@@]1(C)O
IC50 (HGC-27; cell growth or viability, CCK-8; 72 h): 4.2 µM

Cc1ccc(C(C)C)cc1.Cc1ncc(CO)c(C=NNC2=Nc3ccccc3-c3[nH]c4ccc(Br)cc4c3C2)c1O.[Cl-].[Cl][Os+]
IC50 (LNCaP; cell growth or viability, MTT; 96 h): 16 µM

N=C(N/N=C/c1ccc(F)cc1)N/N=C/c1ccc(F)cc1
IC50 (IMR-90; cell growth or viability, crystal violet; 72 h): 16.3 µM

COc1cc2c(cc1C(C)O)CCC1C(C)(C)c3nc(C)ncc3C[C@]21C (mixture of isomers)
IC50 (TM3; cell growth or viability, SRB; 24 h): > 100 µM

COc1ncc(-c2ccc3c(Nc4cc(Oc5cc(F)cc(F)c5)cc(C(=O)O)c4)c(S(=O)(=O)NC4CC4)cnc3c2)c(OC)n1
IC50 (SNU-398; lactate production, refers to: lactate in supernatant; 6 h): 0.8 µM

Repeated from above:
O=C(NN1C(=O)c2ccccc2NC1c1ccc([N+](=O)[O-])o1)c1ccc([N+](=O)[O-])cc1 (stereo not shown)
IC50 (HCC4017; cell growth or viability, MTS; 96 h): > 50 µM

CCCCCCCCCCCCCCCCCCOc1c(O)cc(C(=O)O[C@@H]2Cc3c(O)cc(O)cc3O[C@@H]2c2cc(O)c(O)c(O)c2)cc1O
IC50 (A-431; cell growth or viability, CCK-8; 24 h): 94.6 µM
